Measured values collected from several papers.
Lines come from different studies, so protocols differ. Numbers after ± are the reported error.
Method: steady-state kinetics
B1: CYP2J2 (Homo sapiens, UniProt P51589); chain MLAAMGSLAAALWAVVHPRTLLLGTVAFLLAADFLKRRRPKNYPPGPWRLPFLGNFFLVDFEQSHLEVQLFVKKYGNLFSLELGDISAVLITGLPLIKEALIHMDQNFGNRPVTPMREHIFKKNGLIMSSGQAWKEQRRFTLTALRNFGLGKKSLEERIQEEAQHLTEAIKEENGQPFDPHFKINNAVSNIICSITFGERFEYQDSWFQQLLKLLDEVTYLEASKTCQLYNVFPWIMKFLPGPHQTLFSNWKKLKLFVSHMIDKHRKDWNPAETRDFIDAYLKEMSKHTGNPTSSFHEENLICSTLDLFFAGTETTSTTLRWALLYMALYPEIQEKVQAEIDRVIGQGQQPSTAARESMPYTNAVIHEVQRMGNIIPLNVPREVTVDTTLAGYHLPKGTMILTNLTALHRDPTEWATPDTFNPDHFLENGQFKKREAFMPFSIGKRACLGEQLARTELFIFFTSLMQKFTFRPPNNEKLSLKFRMGITISPVSHRLCAVPQV
B2: genB3 Q310N (Micromonospora echinospora, UniProt Q2MG50); chain MDSANLTNRGLVERARRVTAAENYDIGTRFSAMIQSGEGAWLTDVEGNRYVDLTASSGTIILGHRNQAVTEAITRQIRDFGTAFASTLSVPRVELAERLCERYECAEKVVFHKTGSEGTAMAARLARAATGRELILSCGYHGWHEWQLAGETFGYQQTTGVVGFGYNEKALAKMLEAFGNEVAGVLISPELLYFDVEFYQRMYALCARYDVPFMMDEVYTGFRAGPKGVHGLGVPADVVVVSKGLANGHSLAAVMGRRDIIDAYDVSGINGTYTREVPPMAAAMAVLDVLDTPGVYEHAEAMGRRLADGMREILTGEGIPNWVGGPALMFDTVLPNDDLGWEIYKTAHDFGVYFEDSGTQLVTTAFDEAAVDHALTAFRKATRQVIADRPDIAPTSGGELTEERKLDFAEEAFGGLLRDDERTNALIDETIEKVVNRDRSIKPVLIPAQN
B3: enzyme (Streptomyces platensis, UniProt A0A0A0V031); chain MQHTTIGDVLREHRRSHPGRTALVDGPVRLTWPELDDRVNRLAGSLAASGIGRGDRIMWLGQNSFRVYELIAAAGKLGAMVCVGYWRWAPPEMEFALRDFDPHLVVWQHQEIHETVARTREALGSDDTARWLRHDSAPQDPDGYEAFLAAGGLADPDLDIDPDSPVLVLYTAAMSGRQCGSLLSHTNLIAMATAAAWLGDIDHTTAFLNSGPMFHIGNHQFWGMPTLLMAGKNVIVRRVVAEEVRDLLVAEECTHAFLMPPTVAEIVRLNRDTGHDLSRLRATVAPHLWEGMATTDTSRFTRSGAAAGRGYGQTELSGFAVTAAYGGPAAGNAGRPGPGLTVRVLDTAGRECAVGEAGEICARGTVVHRGYWNRDEVNAHRFRSGWWHTTDLGRREPDGSLTFLGTTTRMLKSAAENIFPAEVENCIEQHPAVREAAVIGVPNTRWAQDVKAVVVLEPDAGVSEQEIIDHCRPRIASYKKPKSVAFAAALPRTVSGARDYDALDKEYGGGGYPGAATLGPGR
B4: genB3 (Micromonospora echinospora, UniProt Q2MG50); chain MDSANLTNRGLVERARRVTAAENYDIGTRFSAMIQSGEGAWLTDVEGNRYVDLTASSGTIILGHRNQAVTEAITRQIRDFGTAFASTLSVPRVELAERLCERYECAEKVVFHKTGSEGTAMAARLARAATGRELILSCGYHGWHEWQLAGETFGYQQTTGVVGFGYNEKALAKMLEAFGNEVAGVLISPELLYFDVEFYQRMYALCARYDVPFMMDEVYTGFRAGPKGVHGLGVPADVVVVSKGLANGHSLAAVMGRRDIIDAYDVSGIQGTYTREVPPMAAAMAVLDVLDTPGVYEHAEAMGRRLADGMREILTGEGIPNWVGGPALMFDTVLPNDDLGWEIYKTAHDFGVYFEDSGTQLVTTAFDEAAVDHALTAFRKATRQVIADRPDIAPTSGGELTEERKLDFAEEAFGGLLRDDERTNALIDETIEKVVNRDRSIKPVLIPAQN
B5: DTYMK (Homo sapiens, UniProt P23919); chain MAARRGALIVLEGVDRAGKSTQSRKLVEALCAAGHRAELLRFPERSTEIGKLLSSYLQKKSDVEDHSVHLLFSANRWEQVPLIKEKLSQGVTLVVDRYAFSGVAFTGAKENFSLDWCKQPDVGLPKPDLVLFLQLQLADAAKRGAFGHERYENGAFQERALRCFHQLMKDTTLNWKMVDASKSIEAVHEDIRVLSEDAIRTATEKPLGELWK
B6: PPIP5K2 (Homo sapiens, UniProt O43314); chain MSEAPRFFVGPEDTEINPGNYRHFFHHADEDDEEEDDSPPERQIVVGICSMAKKSKSKPMKEILERISLFKYITVVVFEEEVILNEPVENWPLCDCLISFHSKGFPLDKAVAYAKLRNPFVINDLNMQYLIQDRREVYSILQAEGILLPRYAILNRDPNNPKECNLIEGEDHVEVNGEVFQKPFVEKPVSAEDHNVYIYYPTSAGGGSQRLFRKIGSRSSVYSPESNVRKTGSYIYEEFMPTDGTDVKVYTVGPDYAHAEARKSPALDGKVERDSEGKEVRYPVILNAREKLIAWKVCLAFKQTVCGFDLLRANGQSYVCDVNGFSFVKNSMKYYDDCAKILGNIVMRELAPQFHIPWSIPLEAED
B7: FNO G29S (Thermobifida fusca, UniProt Q47RA9); chain MIMIMASKSSPHDLPDVSGLSIAVLGGTSDQGRGLARRFAMAGHEVILGSRSAERAQAVAAELGEGLPVRGMDNAGAAEAGDVVIVAVPWDGHRALLESLKDVLAGKIVVDCVNPLGFDKRGAYALPVEEGSAAEQAAAILPDSRVVAAFHHVSAVLLLDPEVEKVDLDVLVLGDDREATDVVRALAARIPGVRGVYGGRLRNAHQVEAFTANLISINRRYKAHAGIRITDI
B8: protein (Thermotoga neapolitana, UniProt B9K712); chain MKMLYDLAKKRKTVRRFKKEKPPLEDLIYSLKVANEAPSGMNAQPWRFLIVEDEKLKGQIRRVCERSEKTFYENVRGRLKEWLDEKRFTWRKPFLKEAPYLLLVFSEKSAPYSRESVWLAVGYLLLALEEKGLGSVPYTPPDFREVEKLVNTPSELRLEVILPVGYPDDPKPKYPRNEVIVRYNTF
B9: TENT2 (Homo sapiens, UniProt Q6PIY7); chain MFPNSILGRPPFTPNHQQHNNFFTLSPTVYSHQQLIDAQFNFQNADLSRAVSLQQLTYGNVSPIQTSASPLFRGRKRLSDEKNLPLDGKRQRFHSPHQEPTVVNQIVPLSGERRYSMPPLFHTHYVPDIVRCVPPFREIAFLEPREITLPEAKDKLSQQILELFETCQQQISDLKKKELCRTQLQREIQLLFPQSRLFLVGSSLNGFGTRSSDGDLCLVVKEEPCFFQVNQKTEARHILTLVHKHFCTRLSGYIERPQLIRAKVPIVKFRDKVSCVEFDLNVNNIVGIRNTFLLRTYAYLENRVRPLVLVIKKWASHHQINDASRGTLSSYSLVLMVLHYLQTLPEPILPSLQKIYPESFSPAIQLHLVHQAPCNVPPYLSKNESNLGDLLLGFLKYYATEFDWNSQMISVREAKAIPRPDGIEWRNKYICVEEPFDGTNTARAVHEKQKFDMIKDQFLKSWHRLKNKRDLNSILPVRAAVLKR
UniProt Q9ZGI2, sequence (whole entry, looked up): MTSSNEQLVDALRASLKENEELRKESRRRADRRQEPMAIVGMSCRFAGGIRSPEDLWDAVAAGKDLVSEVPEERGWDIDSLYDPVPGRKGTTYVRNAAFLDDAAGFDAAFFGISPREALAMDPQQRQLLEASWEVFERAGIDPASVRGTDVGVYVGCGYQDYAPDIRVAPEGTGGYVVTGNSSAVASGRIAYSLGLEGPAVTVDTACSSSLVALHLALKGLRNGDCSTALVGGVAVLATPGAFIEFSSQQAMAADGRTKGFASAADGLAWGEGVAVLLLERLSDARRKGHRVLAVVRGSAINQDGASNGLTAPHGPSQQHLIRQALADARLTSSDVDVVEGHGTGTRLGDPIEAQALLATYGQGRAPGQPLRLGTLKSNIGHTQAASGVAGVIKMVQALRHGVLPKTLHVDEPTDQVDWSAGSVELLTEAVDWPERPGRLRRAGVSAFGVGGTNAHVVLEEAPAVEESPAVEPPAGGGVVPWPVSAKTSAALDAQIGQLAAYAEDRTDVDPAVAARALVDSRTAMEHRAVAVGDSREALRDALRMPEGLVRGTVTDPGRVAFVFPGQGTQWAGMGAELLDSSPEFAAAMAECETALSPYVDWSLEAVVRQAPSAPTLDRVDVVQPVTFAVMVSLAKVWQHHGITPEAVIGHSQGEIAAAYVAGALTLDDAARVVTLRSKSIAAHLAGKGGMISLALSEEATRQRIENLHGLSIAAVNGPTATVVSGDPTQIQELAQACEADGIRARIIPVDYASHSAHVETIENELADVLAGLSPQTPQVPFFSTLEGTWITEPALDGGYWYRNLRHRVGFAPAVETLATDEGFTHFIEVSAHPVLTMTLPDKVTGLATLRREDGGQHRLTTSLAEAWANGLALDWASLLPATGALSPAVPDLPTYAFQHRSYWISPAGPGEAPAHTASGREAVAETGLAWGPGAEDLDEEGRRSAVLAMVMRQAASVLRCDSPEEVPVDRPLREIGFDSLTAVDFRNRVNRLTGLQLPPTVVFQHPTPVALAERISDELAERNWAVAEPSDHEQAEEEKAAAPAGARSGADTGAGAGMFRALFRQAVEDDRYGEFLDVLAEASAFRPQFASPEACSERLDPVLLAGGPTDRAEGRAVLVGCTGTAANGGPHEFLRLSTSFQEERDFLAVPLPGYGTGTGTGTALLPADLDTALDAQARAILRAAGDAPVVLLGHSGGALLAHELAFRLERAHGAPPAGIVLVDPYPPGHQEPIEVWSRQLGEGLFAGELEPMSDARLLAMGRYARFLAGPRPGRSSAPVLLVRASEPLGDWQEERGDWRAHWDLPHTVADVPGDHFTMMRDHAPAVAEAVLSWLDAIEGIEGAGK
UniProt P10635, sequence (whole entry, looked up): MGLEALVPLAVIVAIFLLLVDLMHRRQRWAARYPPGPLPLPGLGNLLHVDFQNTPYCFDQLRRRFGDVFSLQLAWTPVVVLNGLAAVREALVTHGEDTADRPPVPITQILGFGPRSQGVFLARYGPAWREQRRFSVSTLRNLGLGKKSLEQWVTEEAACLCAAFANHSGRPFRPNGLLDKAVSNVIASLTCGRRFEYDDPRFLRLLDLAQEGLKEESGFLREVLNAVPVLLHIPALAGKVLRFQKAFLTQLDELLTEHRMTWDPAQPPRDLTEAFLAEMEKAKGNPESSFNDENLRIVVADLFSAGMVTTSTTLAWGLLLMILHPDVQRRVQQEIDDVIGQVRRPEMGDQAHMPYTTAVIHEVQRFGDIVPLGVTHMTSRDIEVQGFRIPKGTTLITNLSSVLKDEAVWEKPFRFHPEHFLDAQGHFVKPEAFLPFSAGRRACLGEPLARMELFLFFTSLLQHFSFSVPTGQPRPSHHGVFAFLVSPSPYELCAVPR
UniProt P27487, sequence (whole entry, looked up): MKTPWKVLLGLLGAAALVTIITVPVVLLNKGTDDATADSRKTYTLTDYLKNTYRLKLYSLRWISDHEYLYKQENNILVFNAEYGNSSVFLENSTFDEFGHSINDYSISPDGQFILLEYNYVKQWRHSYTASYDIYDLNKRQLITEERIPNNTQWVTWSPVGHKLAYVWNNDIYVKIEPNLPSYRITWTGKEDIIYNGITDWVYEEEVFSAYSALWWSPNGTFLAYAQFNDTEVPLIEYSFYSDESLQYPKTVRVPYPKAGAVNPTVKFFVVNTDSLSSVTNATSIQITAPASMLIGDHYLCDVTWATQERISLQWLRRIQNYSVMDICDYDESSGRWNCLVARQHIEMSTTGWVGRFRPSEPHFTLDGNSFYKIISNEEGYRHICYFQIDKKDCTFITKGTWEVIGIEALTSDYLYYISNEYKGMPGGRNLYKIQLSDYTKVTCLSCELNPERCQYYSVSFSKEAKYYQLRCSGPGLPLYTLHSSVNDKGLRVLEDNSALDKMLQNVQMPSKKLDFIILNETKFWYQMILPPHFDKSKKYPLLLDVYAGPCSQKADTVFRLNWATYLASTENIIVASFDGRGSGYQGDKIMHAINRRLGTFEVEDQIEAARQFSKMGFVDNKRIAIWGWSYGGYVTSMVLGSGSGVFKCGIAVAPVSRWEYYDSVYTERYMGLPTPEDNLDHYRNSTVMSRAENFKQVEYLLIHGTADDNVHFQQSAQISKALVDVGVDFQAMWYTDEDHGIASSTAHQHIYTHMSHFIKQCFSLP

Substance = B1 (CYP2J2); substrate = COc1ccc2c(c1)OC1=C(/C=C/c3sc4ccccc4[n+]3C)CCCC1=C2; conditions = pH 7.4, 37 °C; kcat = 0.382 s⁻¹
Substance = CYP2D6 (Homo sapiens, UniProt P10635); substrate = CC(C)(C)NC(CO)c1cc(Cl)c(N)c(C(F)(F)F)c1; conditions = pH 7.4, 37 °C, not purified; kcat = 0.00947 ± 0.000544 s⁻¹
Substance = B2 (genB3 Q310N); substrate = CN[C@@H]1[C@@H](O)[C@@H](O[C@@H]2[C@@H](O)[C@H](O[C@H]3O[C@H](CN)[C@@H](O)[C@H](OP(=O)(O)O)[C@H]3N)[C@@H](N)C[C@H]2N)OC[C@]1(C)O; conditions = 30 °C; kcat = 0.0258 ± 0.000667 s⁻¹
Substance = enzyme (Actinoalloteichus caeruleus, UniProt M1F4W9); substrate = CC(C)C[C@H](NC(=O)c1cc(O)cc(-c2ccccn2)n1)C(=O)O; conditions = pH 8, 30 °C; kcat = 12.7 ± 0.779 s⁻¹
Substance = enzyme (Streptomyces venezuelae, UniProt Q9ZGI2); substrate = CC[C@H](O)[C@H](C)/C=C/C(=O)[C@H](C)C[C@H](C)[C@H](OC)[C@@H](C)C(=O)SCCNC(C)=O; kcat = 0.143 ± 0.007 s⁻¹
Substance = enzyme (UniProt A0A1I5R890); substrate = Cn1cncc1C[C@H](N)C(=O)O; kcat = 2.19 ± 0.045 s⁻¹
Substance = B3 (enzyme); substrate = C[C@@]12CCC[C@@](C)(C(=O)OP(=O)(O)OC[C@H]3O[C@@H](n4cnc5c(N)ncnc54)[C@H](O)[C@@H]3O)[C@H]1C[C@@H](O)[C@]13C[C@H]4C[C@H](O[C@@]4(C)C1)[C@@H]23; conditions = pH 7.8, 25 °C; kcat = 22 s⁻¹
Substance = B4 (genB3); substrate = CN[C@@H]1[C@@H](O)[C@@H](O[C@@H]2[C@@H](O)[C@H](O[C@H]3O[C@H](CN)[C@@H](O)[C@H](OP(=O)(O)O)[C@H]3N)[C@@H](N)C[C@H]2N)OC[C@]1(C)O; conditions = 30 °C; kcat = 0.0297 ± 0.000333 s⁻¹
Substance = enzyme (Astragalus mongholicus, UniProt A0A977WMR2); substrate = CC(C)(O)[C@H]1CC[C@@](C)([C@H]2[C@@H](O)C[C@@]3(C)[C@@H]4C[C@H](O)[C@H]5C(C)(C)[C@@H](O)CC[C@@]56C[C@@]46CC[C@]23C)O1; kcat = 0.024 s⁻¹
Substance = B5 (DTYMK); substrate = Cc1cn([C@@H]2C[C@@H](O)[C@H](COP(=O)(O)O)O2)c(=O)[nH]c1=O; conditions = added: ATP 2 mM, Mg2+ 2 mM; kcat = 0.34 ± 0.03 s⁻¹
Substance = B6 (PPIP5K2); substrate = O=P(O)(O)O[C@@H]1[C@@H](OP(=O)(O)O)[C@@H](OP(=O)(O)O)[C@@H](OP(=O)(O)OP(=O)(O)O)[C@H](OP(=O)(O)O)[C@H]1OP(=O)(O)O; kcat = 0.002 s⁻¹
Substance = DPP4 (Homo sapiens, UniProt P27487); substrate = NCC(=O)N1CCC[C@H]1C(=O)Nc1ccc([N+](=O)[O-])cc1; conditions = pH 7.5; kcat = 17.6 s⁻¹
Substance = B7 (FNO G29S); substrate = NC(=O)C[n+]1cccc(C(N)=O)c1; conditions = pH 8, 25 °C, added: F420H2 40 µM; kcat = 0.16 ± 0.00933 s⁻¹
Substance = B8 (protein); substrate = N[C@@H](Cc1ccc(O)c(I)c1)C(=O)O; conditions = pH 7.4, 60 °C; kcat = 0.45 ± 0.183 s⁻¹
Substance = B9 (TENT2); substrate = Nc1ncnc2c1ncn2[C@@H]1O[C@H](COP(=O)(O)OP(=O)(O)OP(=O)(O)O)[C@@H](O)[C@H]1O; conditions = pH 8, 37 °C, added: Mg2+; kcat = 2.93e-05 ± 1.6e-06 s⁻¹

Some of these lines once more:
Substance = enzyme (UniProt A0A1I5R890); substrate = Cn1cncc1C[C@H](N)C(=O)O; kcat = 2.19 ± 0.045 s⁻¹
